Assay results collected from several papers.
Parts stem from different laboratories: compare values within a part only. Changes are numbered by the printed parent chain.

Study 1
Target: ABI1, truncated, D143A, DHFR fusion (Arabidopsis thaliana)
Method: DHFR PCA, deep sequencing
Medium: yeast
Notes: methotrexate growth selection, single substitutions
Together with: (+)-ABA 0.39 µM
Relative to: wild-type fitted maximum
Direction: higher = stronger binding
Parent: PYL1, truncated, DHFR fusion (Arabidopsis thaliana); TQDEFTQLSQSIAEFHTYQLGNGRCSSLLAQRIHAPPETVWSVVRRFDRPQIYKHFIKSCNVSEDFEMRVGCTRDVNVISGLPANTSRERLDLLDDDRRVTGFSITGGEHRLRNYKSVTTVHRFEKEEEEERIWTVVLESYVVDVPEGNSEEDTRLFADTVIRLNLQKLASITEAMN
Change	relative binding score [%]
S42V	0.923
I172S	-6.8
V76W	-13.7
R90S	-4.53
S42F	-5.31
E89Q	-3.18
V76G	-6.73
R74E	-10.8
V76C	22
D153M	-2.79
R90P	-3.29
S11T	44.2
K126A	69.1
N22P	67.9
D97H	30.4
V62W	-14.3
R69I	35.9
N177L	27.7
A84C	34

Study 2
Target: Prothrombin, mature alpha-thrombin (F2, Homo sapiens, UniProt P00734)
Method: aptamer microarray, sandwich
Molecule type: DNA with 2'F-ANA
Medium: in vitro
Concentration: 200 nM
Notes: whole 15-mer aptamer, many near background
Together with: Cy3 exosite-II aptamer, 400 nM
Direction: higher = stronger binding
Sequence: GGTTGGTGTGGTTGG
Modification	mean fluorescence intensity
2'F-ANA at 1 3 7 8 9 13	288 a.u.
2'F-ANA at 1 3 5 6 7 9 10 14 15	48.2 a.u.
2'F-ANA at 1 3 4 5 8 9 10 15	45.2 a.u.
2'F-ANA at 4 6 7 9 11 12 13 14	79 a.u.
2'F-ANA at 1 2 4 6 7 9 10 11 12 14	61 a.u.
2'F-ANA at 1 2 7 8 11 13 14	56.1 a.u.
2'F-ANA at 1 2 4 5 7 8 15	142 a.u.
2'F-ANA at 1 3 4 5 6 7 8 10 13 14	48 a.u.
2'F-ANA at 1 2 3 4 7 9 12 15	334 a.u.
2'F-ANA at 1 2 3 4 5 6 10 11 13	100 a.u.
2'F-ANA at 3 6 7 8 10 11 12 14	367 a.u.
2'F-ANA at 2 3 4 5 6 9 14	46.7 a.u.
2'F-ANA at 1 2 3 4 6 7 9 11 12	225 a.u.
2'F-ANA at 1 3 4 5 7 9 12 14 15	50.4 a.u.
2'F-ANA at 2 4 6 8 12 15	520 a.u.
2'F-ANA at 1 2 4 5 9 13 15	48.3 a.u.

Study 3
Target: RNA binding protein fox-1 homolog 2, RRM domain, GST-SBP tag (RBFOX2, Homo sapiens, UniProt O43251-10, residues 100-194)
Method: RNA Bind-n-Seq
Molecule type: RNA
Medium: in vitro
Concentration: 365 nM
Notes: natural RNA segment, single round, ends assumed
Relative to: no-protein control
Direction: higher = stronger binding
Shared flanks, not repeated: GGGAGUUCUACAGUCCGACGAUC … UGGAAUUCUCGGGUGCCAA
Construct (chain): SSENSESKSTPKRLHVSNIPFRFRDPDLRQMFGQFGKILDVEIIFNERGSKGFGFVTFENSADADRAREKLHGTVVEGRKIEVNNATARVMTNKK
Sequence	RBNS enrichment (R)
GAGAAAACUAACACAGCAGUGGCAAUGCUGGGAAUGGCCAACAGGCUUGGAAUUCAACUCAGUUUAGCACCAAAGCCAGUGCUAUUAAGACCUGAAGUUCAACAGUGGAU	0.423
AUCUUUAACUGUACUUUGCCUGGCGCUGUGCGCAAGGUCUGAAACCUUAUUGCUAGUACCUAGAAACACACAAGGCUAUCCAGCCAAAUCUUAAUGUAAAGUAGCUAGAG	0.346
ACCUGUCACGGGGAACAUGGAGCCUUGGUGUAUUUUUCUUUUCUUUUUUUAAUGAAUCAAUAGCAGCGUCCAGUCCCCCAGGGCUGCUUCCUGCCUGCACCUGCGGUGAC	0.657
ACACAUCAUCAUCGAAGUCUUCCCCAGUUAUAAAGAGGUCACAUAGUCGUGUGGGUCGAGGAUUCUGUGCCUCCAGGACCAGGGGCCCACCCUCUGCCCAGGGAGUCCUU	0.359
UCUGUUUGUCUUUUCUACCUCUUUCUCUUGCAGUGAUAGACUGAGGGGGUAAAAUCAAGAGAAAAAACUCUCAGGAAUCAAGGAACAUAAUCCUGUGGAGGGUAAUCCAU	0.413
UUUUUUUUUUUAAUUGGAAUUUACCAGUUUAUUGUUUAGCAGUAAUUACCCCAGGUAACACUGGGCAAAAAUCUGGGGUGCAUAAUAGGGAAUUCUGAAUUCUUAGAUUU	1.05
AAACUAAGGCUAUCAAGGAGUGAGAUAGAAUGAAGACACUCCUAUUUCUCCUCCAGCCAGGGUUGCUAGAGCUCAAGGGCACAGUGAUAGGCACCUGGGCAUAAAGGACC	2.8
UCAUCAUUUACCCUAGGUAAGAACUUUGAUCACUGCUUACUAGGUAAAGAAUGUUUGUACUGUUCCAAAACCCAGGCUUCUUUAUUCCUUUACCACUAUCCAUGUGAGCA	0.437
CCAAAGCACAGGUUUAUUCUAAAGAAAACUUUUACGACAAUACUUUCUGUAUUGUCUAGGUUAAGCCCACUUUAGGAGAUCCUUUACUCAUUAACUUAACCAACAAUGUG	0.315
UCUUUGACUAUAACAAAAUCUGGGGAGGACAAAGGUGAUUUUCCUGUGUCCACAUCUAACAAAGUCAAGAUUCCCGGCUGGACUUUUGCAGCUUCCUUCCAAGUCUUCCU	0.207
UUUGUGUGGCUUCUGGCCUAGCUUUUCAGAUGAGCCGCCUGGAUUUUUACCUGGCCUGUUCUGAUAAAGAGGCAUUUAUUAGCCAAGCAACCAUAAGACUCUAGUCAAAA	0.292
CAUAUUCUCUGUCAGCAGCAGCACUCCCACACCAGGUGGUUCUGGGCUCUCUGUAGGCUGGUCCUAGUAGGUGACACCCAGCAACACCCCUGUUGGACAGGAUUGAUUGU	0.361

Study 4
Target: Fragile X messenger ribonucleoprotein 1, C-terminal low-complexity region (Fmr1, Mus musculus, UniProt P35922)
Method: RNA Bind-n-Seq
Molecule type: RNA
Medium: in vitro
Concentration: 200 nM
Notes: whole 134-nt RNA, ends assumed
Together with: 150 mM LiCl
Relative to: input library
Direction: higher = stronger binding
All molecules: 7-deaza-guanosine replaces G
Shared flanks, not repeated: GGGAGUUCUACAGUCCGACGAUC … UGGAAUUCUCGGGUGUCAAGG
Sequence	log2 enrichment
CACAGACAACACGCACCCACACAGACACAGAGGAAAGGGGUUGGGAUGGGGACAGGGUGCACAGCAGGGCGGGGUAGGACCCCAGCCCCU	0.487
UAACUUUAGAGGAGGAUCUGAUGGAUAUGGCAGUGGACGUGGAUUUGGGGAUGGCUAUAAUGGGUAUGGAGGAGGACCGGGAGGUGGCAA	0.861
AGUCCUGUGCUACACAUCGUAUGUACCGAAUCGGGGUUUUGGGGUUUUGGGGUUUUGGAAAGUAUUAUGUUACGCCGUUCGGAUCUGCAC	-0.744
AAGUCCUGUGCUACACAUCGUAUGUACCGAAUCGGGCCCCGGGCCCCGGGCCCCGGAAAGUAUUAUGUUACGCCGUUCGGAUCUGCACUU	-1.63
CCUGUGCUACACAUCGUAUGUACCGAAUCGGCCCCCCGGGGCCCCCCGGGCCCCCCGGGGAAAGUAUUAUGUUACGCCGUUCGGAUCUGC	-3.14
AGUCCUGUGCUACACAUCGUAUGUACCGAAUCGGUUUUUUUGGAAAAAGGAAAAAGGAAAGUAUUAUGUUACGCCGUUCGGAUCUGCACU	-3.25
UAACUUUAGAGGAGGAUCUGAUGGAUAUGGCAGUGGACGUGGAUUUGGGGAUGGCUAUAAUGGGUAUGGAGGAGGACCUGGAGGUGGUAA	0.767
CACAGACAACACGCACCCACACAGACACAGAGGGAAGGGGUUGGGAUGGGGACAGGGUGCACAGAAGGGCGGGGUAGGACCCCAGCCCCU	0.178
CCUCAAGUCCUGUGCUACACAUCGUAUGUACCGAAUCGGCGGGCGGGGCGGGGAAAGUAUUAUGUUACGCCGUUCGGAUCUGCACUUCCA	0.259
UCAGGUCCUUAAGUACCUUCGUAUUACUUUUAGCAGGAAAAACGGCAUGUUUUGCAUCUGGUGUGCAAUGUGAAGAGUCCUUCAAAAAUG	-0.973
CACAGACAACACGCACCCACACAGACACAGAGGGAAGGGGUUGGGAUGGGGACAAAGUGCACAGCAGGGCGGGGUAGGACCCCAGCCCCU	0.217

For quick reference, copied from above (study 3):
Sequence	RBNS enrichment (R)
GAGAAAACUAACACAGCAGUGGCAAUGCUGGGAAUGGCCAACAGGCUUGGAAUUCAACUCAGUUUAGCACCAAAGCCAGUGCUAUUAAGACCUGAAGUUCAACAGUGGAU	0.423
AUCUUUAACUGUACUUUGCCUGGCGCUGUGCGCAAGGUCUGAAACCUUAUUGCUAGUACCUAGAAACACACAAGGCUAUCCAGCCAAAUCUUAAUGUAAAGUAGCUAGAG	0.346
ACCUGUCACGGGGAACAUGGAGCCUUGGUGUAUUUUUCUUUUCUUUUUUUAAUGAAUCAAUAGCAGCGUCCAGUCCCCCAGGGCUGCUUCCUGCCUGCACCUGCGGUGAC	0.657
ACACAUCAUCAUCGAAGUCUUCCCCAGUUAUAAAGAGGUCACAUAGUCGUGUGGGUCGAGGAUUCUGUGCCUCCAGGACCAGGGGCCCACCCUCUGCCCAGGGAGUCCUU	0.359
UCUGUUUGUCUUUUCUACCUCUUUCUCUUGCAGUGAUAGACUGAGGGGGUAAAAUCAAGAGAAAAAACUCUCAGGAAUCAAGGAACAUAAUCCUGUGGAGGGUAAUCCAU	0.413
UUUUUUUUUUUAAUUGGAAUUUACCAGUUUAUUGUUUAGCAGUAAUUACCCCAGGUAACACUGGGCAAAAAUCUGGGGUGCAUAAUAGGGAAUUCUGAAUUCUUAGAUUU	1.05
AAACUAAGGCUAUCAAGGAGUGAGAUAGAAUGAAGACACUCCUAUUUCUCCUCCAGCCAGGGUUGCUAGAGCUCAAGGGCACAGUGAUAGGCACCUGGGCAUAAAGGACC	2.8
UCAUCAUUUACCCUAGGUAAGAACUUUGAUCACUGCUUACUAGGUAAAGAAUGUUUGUACUGUUCCAAAACCCAGGCUUCUUUAUUCCUUUACCACUAUCCAUGUGAGCA	0.437
CCAAAGCACAGGUUUAUUCUAAAGAAAACUUUUACGACAAUACUUUCUGUAUUGUCUAGGUUAAGCCCACUUUAGGAGAUCCUUUACUCAUUAACUUAACCAACAAUGUG	0.315
